{"data": "Results collected from several papers", "ALB": "Albumin (ALB, Bos taurus, UniProt P02769)", "SLCO2B1": "Solute carrier organic anion transporter family member 2B1 (SLCO2B1, Homo sapiens, UniProt O94956)", "note": "Lines come from different studies, so protocols differ. Values joined by “and” are separate records of one study, mostly repeats; a detail may differ. ± gives the spread as reported.", "UniProt P02769, sequence (whole entry, looked up)": "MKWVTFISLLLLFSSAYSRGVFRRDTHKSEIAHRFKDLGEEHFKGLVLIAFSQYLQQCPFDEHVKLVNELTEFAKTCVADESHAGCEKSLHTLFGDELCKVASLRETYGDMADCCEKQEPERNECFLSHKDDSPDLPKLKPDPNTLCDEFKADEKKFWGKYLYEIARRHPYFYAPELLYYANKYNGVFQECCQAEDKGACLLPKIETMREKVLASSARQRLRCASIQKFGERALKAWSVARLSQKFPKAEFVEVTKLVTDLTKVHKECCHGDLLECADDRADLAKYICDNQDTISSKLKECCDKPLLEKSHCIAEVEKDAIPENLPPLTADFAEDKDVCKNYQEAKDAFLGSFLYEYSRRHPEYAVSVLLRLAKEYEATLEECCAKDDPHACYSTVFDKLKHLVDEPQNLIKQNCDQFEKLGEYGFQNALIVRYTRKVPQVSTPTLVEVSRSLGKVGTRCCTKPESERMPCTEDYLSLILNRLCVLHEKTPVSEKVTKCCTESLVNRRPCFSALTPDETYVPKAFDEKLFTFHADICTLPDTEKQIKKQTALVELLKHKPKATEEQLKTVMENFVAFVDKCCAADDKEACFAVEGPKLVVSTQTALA", "UniProt O94956, sequence (whole entry, looked up)": "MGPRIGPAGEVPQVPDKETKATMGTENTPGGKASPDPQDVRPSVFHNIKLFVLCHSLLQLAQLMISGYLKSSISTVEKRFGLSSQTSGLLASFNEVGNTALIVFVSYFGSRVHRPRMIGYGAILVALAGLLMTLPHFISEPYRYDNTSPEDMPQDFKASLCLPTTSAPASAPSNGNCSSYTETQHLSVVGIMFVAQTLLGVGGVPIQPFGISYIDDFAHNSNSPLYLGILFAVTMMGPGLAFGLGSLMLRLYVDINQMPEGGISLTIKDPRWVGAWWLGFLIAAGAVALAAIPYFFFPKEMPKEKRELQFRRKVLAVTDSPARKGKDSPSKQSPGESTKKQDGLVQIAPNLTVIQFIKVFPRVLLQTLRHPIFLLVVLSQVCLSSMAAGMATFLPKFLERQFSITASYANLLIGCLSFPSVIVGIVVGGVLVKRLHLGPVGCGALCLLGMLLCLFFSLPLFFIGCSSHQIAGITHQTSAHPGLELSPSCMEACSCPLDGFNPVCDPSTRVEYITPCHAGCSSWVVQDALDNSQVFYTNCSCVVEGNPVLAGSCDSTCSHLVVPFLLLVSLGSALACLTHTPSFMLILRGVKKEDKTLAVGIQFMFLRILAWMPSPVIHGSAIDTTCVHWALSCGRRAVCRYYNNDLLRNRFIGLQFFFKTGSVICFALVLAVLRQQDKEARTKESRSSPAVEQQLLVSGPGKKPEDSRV", "UniProt P10632, sequence (whole entry, looked up)": "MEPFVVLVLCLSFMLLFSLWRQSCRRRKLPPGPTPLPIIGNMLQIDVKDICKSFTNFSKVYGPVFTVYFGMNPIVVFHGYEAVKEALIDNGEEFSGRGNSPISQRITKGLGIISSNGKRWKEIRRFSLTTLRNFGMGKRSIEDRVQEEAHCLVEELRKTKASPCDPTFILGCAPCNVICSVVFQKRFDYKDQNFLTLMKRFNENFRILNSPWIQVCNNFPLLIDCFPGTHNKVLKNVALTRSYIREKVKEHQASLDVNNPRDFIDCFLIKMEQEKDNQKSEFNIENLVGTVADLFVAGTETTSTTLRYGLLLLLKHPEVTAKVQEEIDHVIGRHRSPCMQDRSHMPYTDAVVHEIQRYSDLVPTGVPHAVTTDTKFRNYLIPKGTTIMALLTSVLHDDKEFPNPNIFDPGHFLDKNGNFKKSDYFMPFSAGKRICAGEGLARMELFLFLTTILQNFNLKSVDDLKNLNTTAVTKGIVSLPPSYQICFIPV", "UniProt Q5S007, sequence (whole entry, looked up)": "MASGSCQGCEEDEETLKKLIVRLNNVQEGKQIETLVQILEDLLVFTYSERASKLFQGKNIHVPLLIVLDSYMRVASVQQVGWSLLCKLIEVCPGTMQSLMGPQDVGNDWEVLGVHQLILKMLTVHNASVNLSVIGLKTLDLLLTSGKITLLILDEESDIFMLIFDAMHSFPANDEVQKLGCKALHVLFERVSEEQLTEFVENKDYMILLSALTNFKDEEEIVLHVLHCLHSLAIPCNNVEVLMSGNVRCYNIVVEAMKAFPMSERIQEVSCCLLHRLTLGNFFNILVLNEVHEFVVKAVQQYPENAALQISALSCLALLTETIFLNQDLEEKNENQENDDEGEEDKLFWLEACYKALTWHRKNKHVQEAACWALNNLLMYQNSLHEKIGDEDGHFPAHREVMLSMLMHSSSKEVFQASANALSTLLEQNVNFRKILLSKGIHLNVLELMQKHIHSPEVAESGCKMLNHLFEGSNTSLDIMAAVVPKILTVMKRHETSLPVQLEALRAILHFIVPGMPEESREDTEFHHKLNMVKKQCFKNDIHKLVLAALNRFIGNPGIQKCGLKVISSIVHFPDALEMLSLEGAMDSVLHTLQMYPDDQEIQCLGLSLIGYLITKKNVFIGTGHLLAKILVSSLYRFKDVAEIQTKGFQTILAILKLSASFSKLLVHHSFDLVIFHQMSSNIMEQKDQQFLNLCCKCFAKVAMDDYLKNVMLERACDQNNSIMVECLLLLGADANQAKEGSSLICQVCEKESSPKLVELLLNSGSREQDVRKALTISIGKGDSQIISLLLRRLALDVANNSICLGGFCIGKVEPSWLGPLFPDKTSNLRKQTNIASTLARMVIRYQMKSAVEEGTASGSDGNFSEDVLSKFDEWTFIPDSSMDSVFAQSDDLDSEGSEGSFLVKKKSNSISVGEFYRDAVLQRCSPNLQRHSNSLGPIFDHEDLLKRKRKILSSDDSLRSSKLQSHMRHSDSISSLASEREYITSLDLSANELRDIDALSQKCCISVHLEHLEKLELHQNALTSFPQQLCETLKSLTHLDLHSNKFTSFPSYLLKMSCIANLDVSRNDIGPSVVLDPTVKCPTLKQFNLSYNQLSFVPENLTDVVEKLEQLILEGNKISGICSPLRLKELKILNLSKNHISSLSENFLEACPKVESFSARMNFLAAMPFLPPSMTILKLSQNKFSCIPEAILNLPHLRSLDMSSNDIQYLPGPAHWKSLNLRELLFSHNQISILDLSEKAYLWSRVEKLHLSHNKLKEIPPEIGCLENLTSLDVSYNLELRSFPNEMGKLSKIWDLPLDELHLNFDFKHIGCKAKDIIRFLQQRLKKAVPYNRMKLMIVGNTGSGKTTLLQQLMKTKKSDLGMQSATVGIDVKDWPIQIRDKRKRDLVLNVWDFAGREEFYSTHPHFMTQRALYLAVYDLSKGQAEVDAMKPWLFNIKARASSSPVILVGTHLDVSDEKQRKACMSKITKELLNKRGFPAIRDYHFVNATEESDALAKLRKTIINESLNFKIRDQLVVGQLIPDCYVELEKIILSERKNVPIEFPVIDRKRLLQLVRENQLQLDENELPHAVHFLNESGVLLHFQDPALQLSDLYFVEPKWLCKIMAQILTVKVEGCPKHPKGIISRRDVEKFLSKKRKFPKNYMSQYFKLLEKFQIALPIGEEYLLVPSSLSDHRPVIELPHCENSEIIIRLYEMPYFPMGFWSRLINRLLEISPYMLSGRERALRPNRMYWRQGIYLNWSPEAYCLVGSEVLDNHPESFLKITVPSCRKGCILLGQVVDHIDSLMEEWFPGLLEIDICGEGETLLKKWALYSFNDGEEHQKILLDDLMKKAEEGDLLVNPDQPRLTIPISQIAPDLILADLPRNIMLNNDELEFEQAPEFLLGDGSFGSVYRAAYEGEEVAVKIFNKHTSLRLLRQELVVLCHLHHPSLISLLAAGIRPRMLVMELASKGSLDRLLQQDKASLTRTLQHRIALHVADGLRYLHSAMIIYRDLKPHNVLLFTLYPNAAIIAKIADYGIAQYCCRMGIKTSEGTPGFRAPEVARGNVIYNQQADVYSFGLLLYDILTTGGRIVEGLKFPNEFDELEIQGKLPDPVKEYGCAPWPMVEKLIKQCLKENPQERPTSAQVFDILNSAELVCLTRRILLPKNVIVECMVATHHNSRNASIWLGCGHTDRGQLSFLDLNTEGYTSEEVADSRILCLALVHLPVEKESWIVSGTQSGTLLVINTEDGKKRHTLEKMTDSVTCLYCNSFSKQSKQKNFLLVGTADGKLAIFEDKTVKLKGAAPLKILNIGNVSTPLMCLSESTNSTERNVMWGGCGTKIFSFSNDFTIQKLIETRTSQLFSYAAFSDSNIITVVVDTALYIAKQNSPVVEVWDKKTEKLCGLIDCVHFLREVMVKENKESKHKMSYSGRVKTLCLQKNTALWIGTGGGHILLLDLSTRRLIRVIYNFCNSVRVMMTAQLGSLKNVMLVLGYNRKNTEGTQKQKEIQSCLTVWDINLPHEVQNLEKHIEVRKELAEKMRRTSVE"}
{"SMILES": "Cc1ncc2[nH]c(=O)n(-c3cnc(Oc4cccc5c4C(C)(C)CO5)c(Cl)c3)c2n1", "tested on": "P-glycoprotein, rat", "quantity": "efflux ratio", "result": 1.4}
{"SMILES": "CCN(CC)CC#CCNc1ccnc2cc(Cl)ccc12", "tested on": "Salmonella typhimurium", "test": "mini-Ames test", "test system": "TA97a", "setting": "125.0 µg/well, without S9", "quantity": "revertants per well", "result": 5}
{"SMILES": "Cc1ncsc1-c1ccc(C(C)NC(=O)C2CC(O)CN2C(=O)C(NC(=O)CCCCCCCCCCN2CCCC(Nc3ncc(Cl)c(Nc4ccccc4S(=O)(=O)C(C)C)n3)C2)C(C)(C)C)cc1 (stereo not drawn)", "tested on": "22Rv1", "test": "RNA-seq, refers to: ZNF280C mRNA", "setting": "concentration not given", "scale": "reference: DMSO", "quantity": "log2 fold change", "result": -1.52}
{"SMILES": "CN(C)c1ccc2c(c1)[Si](C)(C)c1cc(N(C)C)ccc1C21OC(=O)c2cc(C(=O)O)ccc21", "tested on": "ALB", "test": "binding, fluorescence titration", "test system": "PBS", "quantity": "Kd", "result": "23 ± 5 µM"}
{"SMILES": "Cc1cccc(Oc2ccc(-n3c(=O)[nH]c4cccnc43)cn2)c1C", "tested on": "P-glycoprotein, rat", "quantity": "efflux ratio", "result": 1.2}
{"SMILES": "CCCCCCCCCCCCCCCC(=O)NCCCC[C@H](NC(=O)[C@H](CCC(=O)O)NC(=O)[C@H](Cc1ccc(O)cc1)NC(=O)[C@H](CCC(=O)O)NC(=O)COCC(=O)NCCCOCCOCCOCCCNC(=O)[C@H](Cc1c[nH]c2ccccc12)NC(=O)[C@H](CCCCN)NC(=O)[C@H](C)NC(=O)[C@H](CCCCNC(=N)N)NC(=O)[C@H](CCC(N)=O)NC(=O)[C@H](Cc1c[nH]cn1)NC(=O)[C@H](CCSC)NC(=O)[C@H](CC(C)C)NC(=O)[C@H](CCC(N)=O)NC(=O)[C@@H](NC(=O)[C@H](CCC(=O)O)NC(=O)C(C)(C)NC(=O)[C@@H](NC(=O)C(C)(C)N)C(C)C)[C@@H](C)CC)C(=O)N[C@@H](CCC(=O)O)C(=O)N[C@@H](Cc1ccc(O)cc1)C(=O)N[C@@H](CCC(=O)O)C(N)=O", "tested on": "ALB", "test": "binding, BLI", "quantity": "Kd", "result": "1.47 µM"}
{"SMILES": "O=C(Nc1cc(-c2ccnc3[nH]ccc23)c(Cl)cn1)[C@H]1CCC[C@@H](NC(=O)C(F)(F)F)C1", "tested on": "P-glycoprotein (MDR1)", "test system": "MDCK-MDR1 cells", "setting": "basolateral to apical", "quantity": "Papp", "result": "40.2 ×10⁻⁶ cm/s"}
{"SMILES": "CN1CCN(c2ccc3[nH]c(-c4ccc5[nH]c(-c6ccc(OCCCCNC(=O)c7ccc8c(c7)C7(OC8=O)c8ccc(N(C)C)cc8[Si](C)(C)c8cc(N(C)C)ccc87)cc6)nc5c4)nc3c2)CC1", "tested on": "ALB", "test": "binding, fluorescence titration", "test system": "PBS", "setting": "1 h", "quantity": "Kd", "result": "361 ± 87 µM"}
{"SMILES": "COC1CN([C@H]2CC[C@H]([C@@]3(C)Oc4c(Cl)cc(C(=O)NCc5c(SC)cc(C)[nH]c5=O)c(C)c4O3)CC2)C1", "test": "RNA-seq, refers to: TREM2 mouse homolog", "test system": "mouse, HT-1376 xenograft, whole blood", "setting": "dose not given", "scale": "reference: vehicle", "quantity": "log2 fold change", "result": 0.148}
{"SMILES": "O=C(c1ccc(OCCN2CCCCC2)cc1)c1c(-c2ccc(O)cc2)sc2cc(O[C@@H]3O[C@H](C(=O)O)[C@@H](O)[C@H](O)[C@H]3O)ccc12", "tested on": "SLCO2B1", "test system": "HEK293 expressing SLCO2B1", "setting": "pH 7.4", "quantity": "intrinsic clearance", "result": "3.21 µL/min/mg protein"}
{"SMILES": "CN1CCN(c2ccc3[nH]c(-c4ccc5[nH]c(-c6ccc(OCCCCNC(=O)c7cccc8c7C(=O)OC87c8ccc(N(C)C)cc8C(C)(C)c8cc(N(C)C)ccc87)cc6)nc5c4)nc3c2)CC1", "tested on": "ALB", "test": "binding, fluorescence titration", "test system": "PBS", "setting": "1 h", "quantity": "Kd", "result": "132 ± 18 µM"}
{"SMILES": "C=CC(=O)Nc1cccc(Cn2ncc3cnc(Nc4cnn(CCOC)c4)nc32)c1", "tested on": "PIP5K1A human", "test": "binding, KINOMEscan", "setting": "100 nM", "scale": "lower = stronger binding", "quantity": "percent of control", "result": "3.3%"}
{"SMILES": "O=C(c1ccc(OCCN2CCCCC2)cc1)c1c(-c2ccc(O[C@@H]3O[C@H](C(=O)O)[C@@H](O)[C@H](O)[C@H]3O)cc2)sc2cc(O)ccc12", "tested on": "SLCO2B1", "test system": "HEK293 expressing SLCO2B1", "setting": "pH 7.4", "quantity": "intrinsic clearance", "result": "6.91 µL/min/mg protein"}
{"SMILES": "Nc1ncc(-c2cc(-c3cnn(CC(F)(F)F)c3)ncc2F)nc1C(=O)NC1CNCC(F)C1 (stereo not drawn)", "tested on": "RIPK5", "test": "KINOMEscan", "setting": "1 µM", "scale": "reference: DMSO control", "quantity": "remaining binding", "result": "72%"}
{"SMILES": "Cc1nn(-c2cccc(N)c2)c(=O)c2cnc(Nc3ccc(N4CCNCC4)cc3)nc12", "tested on": "LRRK2 (Homo sapiens, UniProt Q5S007)", "test": "kinase activity, inhibitor, SelectScreen kinase profiling", "quantity": "IC50", "result": "> 10 µM"}
{"SMILES": "CNC(=O)C1CCCN(C(=O)C2CC3CCC2N3C(=O)[C@@H]2C[C@@H](O)CN2C(=O)NCc2cccc(Cl)c2F)C1 (mixture of isomers)", "tested on": "Cytochrome P450 2C8 (CYP2C8, Homo sapiens, UniProt P10632)", "test": "preincubation without NADPH", "test system": "human", "setting": "50 µM", "scale": "reference: negative control", "quantity": "remaining activity", "result": "93.4% and 101%"}
{"SMILES": "CN(C)c1ccc2c(c1)C(C)(C)c1cc(N(C)C)ccc1C21OC(=O)c2cc(C(=O)O)ccc21", "tested on": "ALB", "test": "binding, fluorescence titration", "test system": "PBS", "quantity": "Kd", "result": "430 ± 39 µM"}
{"SMILES": "CO[C@@H]1[C@H](OP(=O)(O)OC[C@H]2O[C@@H](n3cnc4c(=O)[nH]c(N)nc43)[C@H](O)[C@@H]2O)[C@@H](COP(=O)(O)OP(=O)([O-])O[P@@](O)(=S)OC[C@H]2O[C@@H](n3c[n+](C)c4c(=O)[nH]c(N)nc43)[C@H](O)[C@@H]2O)O[C@H]1n1cnc2c(N)ncnc21", "tested on": "m7GpppN-mRNA hydrolase (DCP2, Homo sapiens, UniProt Q8IU60)", "test": "substrate", "setting": "short capped RNA", "scale": "reference: AG-CleanCap RNA", "quantity": "decapping susceptibility", "result": "no effect"}
{"note": "Excerpt of the above:"}
{"SMILES": "O=C(Nc1cc(-c2ccnc3[nH]ccc23)c(Cl)cn1)[C@H]1CCC[C@@H](NC(=O)C(F)(F)F)C1", "tested on": "P-glycoprotein (MDR1)", "test system": "MDCK-MDR1 cells", "setting": "basolateral to apical", "quantity": "Papp", "result": "40.2 ×10⁻⁶ cm/s"}
{"SMILES": "Cc1cccc(Oc2ccc(-n3c(=O)[nH]c4cccnc43)cn2)c1C", "tested on": "P-glycoprotein, rat", "quantity": "efflux ratio", "result": 1.2}
